# Experimental data from different studies.
# Every numbered part comes from another study and shows a few of its results, in no order. Changes are numbered by the printed parent chain.

# Series 1
# Target: Histone acetyltransferase KAT6A, both winged helices, GST fusion (KAT6A, Homo sapiens, UniProt Q92794, residues 1-181)
# Technique: protein binding microarray
# Form: double-stranded DNA, one strand shown
# Sample: in vitro
# Tested at: not given
# Notes: 8-mer, flanks averaged, mean of 2 arrays, mostly near background
# Relative to: not given
# Reading: higher = stronger binding
# Target sequence (chain): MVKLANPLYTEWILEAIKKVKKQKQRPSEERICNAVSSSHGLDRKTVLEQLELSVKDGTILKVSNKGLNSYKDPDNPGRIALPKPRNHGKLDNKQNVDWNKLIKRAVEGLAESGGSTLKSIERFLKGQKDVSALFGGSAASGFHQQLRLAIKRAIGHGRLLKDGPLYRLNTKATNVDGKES
Sequence,E-score
ATCTTATG,-0.0757
GTGGCTAA,-0.0289
ATCACTCA,-0.0521
CTATATGA,-0.0859
ACGATGTC,0.0375
ACTCATAA,-0.0555
ATCTACCG,0.165
CACACCCG,0.122
AGACTGTG,-0.211
GATTATAA,0.0195
GTCGTCAA,-0.00477
CGAAATAG,0.0574
CGAATGCG,0.294
AGTTCCTA,-0.135
GGGTTACA,0.158
CTAATAAC,0.00517
ACTCTTAT,-0.207
CCTGTACA,0.0134

# Series 2
# Target: Interferon regulatory factor 1, DNA-binding domain (IRF1, Homo sapiens, UniProt P10914, residues 1-114)
# Technique: protein-binding microarray
# Form: hairpin DNA
# Sample: in vitro
# Tested at: not given
# Notes: whole hairpin DNA, median over replicate spots
# Relative to: not given
# Reading: higher = stronger binding
# Residues (chain): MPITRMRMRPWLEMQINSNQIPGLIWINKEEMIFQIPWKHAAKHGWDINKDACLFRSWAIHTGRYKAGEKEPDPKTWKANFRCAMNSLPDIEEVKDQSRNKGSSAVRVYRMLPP
Sequence,median fluorescence [a.u.]
GAGGCCCGCGAGCGAAACGCCTCCTGGCGTTTCGCTCGCGGGCCTCACAC,523
GAGGCCCGACAGCGAAACGCCTCCTGGCGTTTCGCTGTCGGGCCTCACAC,536
GAGGCCCGAAGGCGAAACGCCTCCTGGCGTTTCGCCTTCGGGCCTCACAC (5mC at 36),570
GAGGCCCGAAAGTGAACCGCCTCCTGGCGGTTCACTTTCGGGCCTCACAC (5mC at 17),534
GAGGCCCGAGAGCGAAACGCCTCCTGGCGTTTCGCTCTCGGGCCTCACAC,516
GAGGCCCGACAGTGAAACGCCTCCTGGCGTTTCACTGTCGGGCCTCACAC (5mC at 10),494
GAGGCCCGAAGGTGAAACGCCTCCTGGCGTTTCACCTTCGGGCCTCACAC (5mC at 36),526
GAGGCCCGAAAGTGCGACGCCTCCTGGCGTCGCACTTTCGGGCCTCACAC (5mC at 15),502
GAGGCCCTAAAGTGAAACGCCTCCTGGCGTTTCACTTTAGGGCCTCACAC,1080
GAGGCCCGAAAGTAAAACGCCTCCTGGCGTTTTACTTTCGGGCCTCACAC,546
GAGGCCCGAAAGTGAAACGCCTCCTGGCGTTTCACTTTCGGGCCTCACAC (5mC at 7 39),1190
GAGGCCCGAGAGCGAAACGCCTCCTGGCGTTTCGCTCTCGGGCCTCACAC (5mC at 37),514
GAGGCCCGAAAGGGAAACGCCTCCTGGCGTTTCCCTTTCGGGCCTCACAC (5mC at 34),599
GAGGCCCGAAAGCGAAGCGCCTCCTGGCGCTTCGCTTTCGGGCCTCACAC,534
GAGGCCCGACGGTGAAACGCCTCCTGGCGTTTCACCGTCGGGCCTCACAC,522
GAGGCCCGAAAGTCGAACGCCTCCTGGCGTTCGACTTTCGGGCCTCACAC (5mC at 32),527
GAGGCCCGAAAGTTAAACGCCTCCTGGCGTTTAACTTTCGGGCCTCACAC,508
GAGGCCCGCGAGTGAAACGCCTCCTGGCGTTTCACTCGCGGGCCTCACAC (5mC at 9),530
GAGGCCCGAAAGCGAACGGCCTCCTGGCCGTTCGCTTTCGGGCCTCACAC (5mC at 17),533
GAGGCCCGAAAGCGAAACGCCTCCTGGCGTTTCGCTTTCCGGCCTCACAC (5mC at 13 33 40),693
GAGGCCCGAAAGTGAACGGCCTCCTGGCCGTTCACTTTCGGGCCTCACAC (5mC at 17),506
GAGGCCGGAAAGCGAAACGCCTCCTGGCGTTTCGCTTTCCGGCCTCACAC (5mC at 40),1200

# Series 3
# Target: ABI1, truncated, D143A, DHFR fusion (Arabidopsis thaliana)
# Technique: DHFR PCA, deep sequencing
# Sample: yeast
# Notes: methotrexate growth selection, single substitutions
# With: (+)-ABA 0.11 µM
# Relative to: wild-type fitted maximum
# Reading: higher = stronger binding
# Starting sequence: PYL1, truncated, DHFR fusion (Arabidopsis thaliana); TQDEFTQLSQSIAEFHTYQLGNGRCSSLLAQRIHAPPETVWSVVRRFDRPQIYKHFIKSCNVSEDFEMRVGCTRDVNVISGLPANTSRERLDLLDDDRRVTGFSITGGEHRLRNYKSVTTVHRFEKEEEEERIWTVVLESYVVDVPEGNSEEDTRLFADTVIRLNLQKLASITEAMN
Substitution,relative binding score
Q167A,36.5%
R163T,29%
K168F,9.06%
V70R,4.82%
R32N,2.69%
L112W,23.1%
A84K,11.1%
V78L,70.5%
T173H,-5.01%
T86D,6.21%
H34P,-1.66%
F47V,-5.85%
E174N,3.35%
L82A,11.7%
A170V,-2.35%

# Series 4
# Target: RNA binding protein fox-1 homolog 2, RRM domain, GST-SBP tag (RBFOX2, Homo sapiens, UniProt O43251-10, residues 100-194)
# Technique: RNA Bind-n-Seq
# Form: RNA
# Sample: in vitro
# Tested at: 365 nM
# Notes: natural RNA segment, single round, ends assumed
# Relative to: no-protein control
# Reading: higher = stronger binding
# All sequences stand within: GGGAGUUCUACAGUCCGACGAUC … UGGAAUUCUCGGGUGCCAA
# Construct (chain): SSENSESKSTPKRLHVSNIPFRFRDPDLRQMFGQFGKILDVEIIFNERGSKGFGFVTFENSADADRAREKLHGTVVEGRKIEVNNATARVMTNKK
Sequence,RBNS enrichment (R)
CCCACCCAAUCCAGCCAGUUCCCUUCAGGGAGGUUGGUGUGACCUGCUGUAGGUUCACCUUUUAGGCUACGGAUAUUGACAGGGUUUUAGAAUUGCUCUUGGUGCCUCCC,0.567
AACUAGUUCCUCUCUUUUUUUCUGCCAAGUCCUGAAUUGAAAACUGUAGGCUUCCUUGCACAGAUGUUGCAGCCAGCCUCAGGAGUAAAGUGCCCGCUGACUGCUGCCGC,0.457
UUGCGUAGAUGUUGCCUGGUGCAAAGUGCCCCAAACAGCAAUAGAAAGGCAUAUGUAUAACCAAACUCCAAGUGAUAACCAGACCCAUCUCUCCUCCACCUUGACAAAAG,0.471
CUGCCGCUACUUCACCUGAGGGCCGUGAGGAGAAGGUGGGCUGCGCCCCACAGAACUGGCAGCAGCUUCUCCACUGUCAUCAAACUGGCCAUGUCCUGGCCCCGUCUCCA,0.412
UCCUUCAUUCAGGGUUACUGACCUACUGUCCAGGGCUUGAUAGGUAAGGCAGCUUGUUGGCCCUUGUUACAGUAUCUUAGUGUACCCUCCUGUUACAGCUUCCACACUCA,0.357
GACUUGUUGGGUGUGAAGAUAAAUGCAUGUAAGAGCAGCCCUUUGGAGGCUGAGGCAGGAGAAUCUCAAGUUCAGGGCCAGCCUGGGCCACAUACUGAUACCCUGUCUCU,20.6
UACAAGUGUUUUAGAUGUUACUACCUUAUUUUCCCCGAAUUCUAUUUUUGUCCUUGCAGACAGAAUAUAAAAACUCCUGGGCUUAAGGCCUAAGGAAGCCAGUCACCUUC,0.365
CUUUCAAAGUCCAGCCUAGUCUGGACUGCUUCCCCAUCAGCCUUCCCAAGGUUCUAUCCUGUUCCGAGCAACUUUUCUAAUUAUAAACAUCACAGAACAUCCUGGAUCAA,0.507
GUGCAGCCAGAGUGGCGCAGUGCACUAAGGUGCCGGCCGCCCUGCCUGCCCGGUGCCUCCCACUGACCUGAGCUUACUAAGGGAUGGCAGCAGCUCCCCAGAAAAAAACG,0.477
AAUUGCUUAGGAGGAGGAAGGGGAAAGUAUACUUAUGUUGGUGUGUAAGCAUGCAUGGAGGCCUCGAGGCACCACAACAAGGCCAGGUUCUUAGCACAUCCUCUGUUCUC,21.9
CAAGGCCUCCUCUUCCCAGGGGCUGCCAAGUCCUGGCCCUGGCCCUGGCAUAUCACCCCGCACUGUGGGGCCAGGCACCACUAGCCUGGCUCAAAUAUUCCCCAGGGAGA,0.312
CUUGUGGGAAGGCCAUCUCCUCCUGUCUGGUGGUACCUCCACUCUGGGCAGGGAGGGCCUGUCUGUGACUCGCUCUGGACCCCACUUCCCGCUCUGGCCAAGGGCUGUCU,0.254

# Series 5
# Target: Sal-like protein 4, full length isoform B (SALL4, Homo sapiens, UniProt Q9UJQ4-2, residues 1-616)
# Technique: universal PBM
# Form: double-stranded DNA, one strand shown
# Sample: in vitro
# Tested at: not given
# Notes: 8-mer, flanks averaged, mean of replicates
# Reading: higher = stronger binding
Sequence,E-score
CCATCGCG,-0.0534
CAACGCAA,-0.0645
CTTATCGA,0.227
CGGGAATC,-0.242
ACTCGTCG,-0.154
CGCACAAG,-0.0994
GAAGCGCC,-0.246
CACGGTGC,-0.282
ACCAGGCA,-0.203
CGTATCAG,-0.109
CCCCTCTC,-0.224
AGCTGCTA,-0.122
GCATACCA,-0.0638
AGCATGGG,-0.125
AATGCTGA,0.0529
ACCGGCCG,-0.311
CCCCGACG,-0.28
CACGTTGG,-0.2
ACAGCTTC,-0.0142
AAGTGGTC,-0.0669
ACTGTCAT,0.211
AACCTTGA,-0.0309
AGGCAAGG,-0.148
GGCTGACA,-0.143
GCTGTCAA,-0.19

# For quick reference, copied from above (series 1):
Sequence,E-score
ATCTACCG,0.165
CACACCCG,0.122
AGACTGTG,-0.211
GATTATAA,0.0195
GTCGTCAA,-0.00477
CGAAATAG,0.0574
CGAATGCG,0.294
AGTTCCTA,-0.135
GGGTTACA,0.158
